Measured values of several laboratories.
Lines come from different studies, so protocols differ.
Cell line: HepG2

SMILES | test | system | setting | measurement | value
O=C1C(NCCc2ccc(O)c(Br)c2)=CC2=NCCc3c[nH]c1c32 | cell growth or viability, MTT |  | 72 h | CC50 | 4 µM
CC1=C[C@@H](C)[C@H]2[C@@H]3C(=O)C(Cl)(Cl)C(=O)[C@H](C)C(=O)O[C@@H](C)/C=C/C=C\[C@@H](C)[C@@H]3C=C[C@@H]2C1 | cell growth or viability, MTT |  | 5 days | IC50 | > 0.37 µg/mL
COc1ccc2ncc(F)c(C[C@H](O)[C@H]3OC[C@H](NCc4cc5c(nn4)OCCS5)CO3)c2n1 | cytotoxicity |  | 24 h | IC50 | > 128 µg/mL
CC[C@H](C)[C@@H](C(=O)N[C@@H](Cc1ccc(O)cc1)C(=O)N1CCC[C@H]1C(=O)N[C@@H](Cc1ccccc1)C(=O)O)n1cc(C(Cc2ccc(O)cc2)NC(=O)[C@@H](NC(=O)[C@H](CCCNC(=N)N)NC(=O)[C@@H](N)CC(=O)O)C(C)C)nn1 (some centres unmarked) | cell growth or viability, MTT |  | 50 µM, 24 h | viability | 80.3%
C[N+]1=C2C=C(NCCc3c[nH]c4ccccc34)C(=O)c3[nH]cc(c32)CC1 | cell growth or viability, MTT |  | 72 h | CC50 | 1.5 µM
Cc1cc(C(=O)Nc2nc3cccc(C)c3n2[C@H]2CCCCN(C(=O)/C=C/CN(C)C)C2)ccn1 | cytotoxicity |  | 4 days, mean value | CC50 | 9.06 µM
CCCCCCCC(=O)N[C@@H](CCN)C(=O)N[C@H](C(=O)N[C@@H](CCN)C(=O)N[C@H]1CCNC(=O)[C@H]([C@@H](C)O)NC(=O)[C@H](CCN)NC(=O)[C@H](CCN)NC(=O)[C@H](CC(C)C)NC(=O)[C@@H](Cc2ccccc2)NC(=O)[C@H](CCN)NC1=O)[C@@H](C)O | cell growth or viability, MTT |  | 48 h | IC50 | > 1280 µg/mL
COc1ccc2ncc(F)c(C(O)C[C@H]3OC[C@H](NCc4ccc(Cl)c(Cl)c4)CO3)c2n1 (some centres unmarked) | cytotoxicity |  | 24 h | IC50 | 52.7 µg/mL
c1cc2nc(c1)-c1cccc(n1)CCCc1ccc(cc1)OCCCCCCOc1ccc(cc1)CCC2 | cell growth or viability, MTT |  | 25 µM, 24 h | viability | 87.4%
C[C@@H]1C(=O)O[C@@H](C)/C=C/C=C\[C@@H](C)[C@@H]2C=C[C@@H]3C[C@]4(C)O[C@@H]4[C@@H](C)[C@H]3[C@@H]2C(=O)C(Cl)(Cl)C1=O | cell growth or viability, MTT |  | 5 days | IC50 | > 0.93 µg/mL
COc1ccc2nccc(CC[C@H]3OC[C@H](NC(=O)c4ccc(Cl)c(Cl)c4)CO3)c2c1 | cytotoxicity |  | 24 h | IC50 | 6.25 µg/mL
COc1ccc2c(c1)c1c(n2CO)CN2CCc3cc(OCc4cccc(F)c4)c(OC)cc3C2C1 (centres unmarked) | cell growth or viability |  | 20 µM, 24 h | viability | 95.7%
COc1ccc2nccc(CC[C@H]3OC[C@H](NC(=O)c4ccc(Cl)cc4)CO3)c2c1 | cytotoxicity |  | 24 h | IC50 | 4.41 µg/mL
C[N+](C)(CF)CCO | cell viability | galactose medium | 24 h, mitochondrial toxicity | IC50 | > 150 µM

Repeated from above:
SMILES | test | system | setting | measurement | value
CC1=C[C@@H](C)[C@H]2[C@@H]3C(=O)C(Cl)(Cl)C(=O)[C@H](C)C(=O)O[C@@H](C)/C=C/C=C\[C@@H](C)[C@@H]3C=C[C@@H]2C1 | cell growth or viability, MTT |  | 5 days | IC50 | > 0.37 µg/mL
COc1ccc2ncc(F)c(C[C@H](O)[C@H]3OC[C@H](NCc4cc5c(nn4)OCCS5)CO3)c2n1 | cytotoxicity |  | 24 h | IC50 | > 128 µg/mL
